Results pooled from the literature.
Numbered parts are unrelated; each lists some results of a single study. Changes are numbered by the printed parent chain.

Study 1
Target: Histone acetyltransferase KAT6A, winged helix 1, GST fusion (KAT6A, Homo sapiens, UniProt Q92794, residues 1-85)
Technique: protein binding microarray
Molecule type: double-stranded DNA, one strand shown
Sample: in vitro
Concentration: not given
Notes: 8-mer, flanks averaged, mean of 2 arrays, mostly near background
Baseline: not given
Direction: higher = stronger binding
Endpoint: E-score
Target sequence (chain): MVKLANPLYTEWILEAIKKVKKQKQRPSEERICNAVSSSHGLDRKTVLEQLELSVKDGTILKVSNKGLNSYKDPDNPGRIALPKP
AGGTATCG: 0.0675
ACACAACT: -0.218
TAACATAA: -0.0222
ATTACTTC: -0.0776
CTTGGTTC: -0.0347
GCTCAGAA: -0.00447
CAGGGATG: -0.0855
CTGTGAAC: -0.117

Study 2
Target: Protein max, full length (MAX, Homo sapiens, UniProt P61244-2, residues 1-151)
Technique: protein-binding microarray
Molecule type: double-stranded DNA, one strand shown
Sample: in vitro
Concentration: not given
Notes: k-mer, scored over probes, only values ≥0.25
Direction: higher = stronger binding
Endpoint: E-score
ACGCGCAC: 0.345
ACGTTTTC: 0.287
ATGTGCTC: 0.417
CGTGGAAC: 0.323
CACATGTC: 0.478
ACGCCATG: 0.383
CATGGTAC: 0.373
CATGCGCG: 0.418

Single results of other studies
P1: PafA, mature enzyme, eGFP fusion (Elizabethkingia meningoseptica, UniProt Q9KJX5); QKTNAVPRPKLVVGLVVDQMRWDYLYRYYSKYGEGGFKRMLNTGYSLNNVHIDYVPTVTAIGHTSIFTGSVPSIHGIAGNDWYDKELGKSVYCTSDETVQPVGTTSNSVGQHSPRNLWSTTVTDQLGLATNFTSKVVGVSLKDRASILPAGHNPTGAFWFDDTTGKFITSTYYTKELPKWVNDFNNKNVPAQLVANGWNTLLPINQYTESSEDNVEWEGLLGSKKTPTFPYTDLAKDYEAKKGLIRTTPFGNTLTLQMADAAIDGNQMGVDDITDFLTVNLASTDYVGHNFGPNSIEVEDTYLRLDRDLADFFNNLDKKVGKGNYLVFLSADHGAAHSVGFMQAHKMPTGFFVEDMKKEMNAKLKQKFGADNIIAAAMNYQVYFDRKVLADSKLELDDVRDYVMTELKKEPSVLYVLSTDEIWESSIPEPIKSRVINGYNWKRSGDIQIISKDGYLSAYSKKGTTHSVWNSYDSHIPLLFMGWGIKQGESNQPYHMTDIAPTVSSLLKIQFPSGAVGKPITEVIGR
P1 V215A  oxyanion analog dissociation constant (vanadate, free oxyanion; microfluidic competitive inhibition; in vitro, cell-free expressed; not given, derived from inhibition constants, unchanged parent 676 nM; lower = stronger binding): 680 nM
PhoQ, residues 284 288 289 292 302 303 ALASRC  fold induction (PhoP, residues 12 14 15 18 19 NQAHL (Escherichia coli, UniProt P23836); Sort-seq, item: YFP reporter; E. coli; PhoQ-PhoP variant library, added: 10 µM Mg2+; baseline: high Mg2+ state, higher = stronger signaling): 1.42
